Measurements from different studies.
Each numbered part is a random draw from the data of one study; scales do not carry over between parts.

Block 1
Target: RNA binding protein fox-1 homolog 2, RRM domain, GST-SBP tag (RBFOX2, Homo sapiens, UniProt O43251-10, residues 100-194)
Method: RNA Bind-n-Seq
Form: RNA
Sample: in vitro
Tested at: 365 nM
Setting: natural RNA segment, single round, ends assumed
Baseline: no-protein control
Reading: higher = stronger binding
Residues (chain): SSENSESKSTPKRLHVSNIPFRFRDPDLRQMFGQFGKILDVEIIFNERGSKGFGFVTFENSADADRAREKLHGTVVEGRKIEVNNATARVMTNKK
| Oligonucleotide | RBNS enrichment (R) |
| --- | --- |
| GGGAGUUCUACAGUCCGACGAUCAAGCAUAUCUAUUAAUAAUUCCCCCAAUUUUUUAAACUAACAAAAUGGAAUGUUAACUGAAUGGAAUUAAACAUAGCAAUUGUCAAGCCAUCAAAAUUAUAUAUCGAACCUGGAAUUCUCGGGUGCCAA | 0.593 |
| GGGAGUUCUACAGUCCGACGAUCCCCUAAUCUAUGGUCGGGAGACAGCAUCAGGGUUAAGAAGACUUUUUUUUUUUUUUUUUAAACUAGGAGAACCAAAUCUGGAAGCCAAAAUGUAGGCUUAGUUUGUGUGUUGGAAUUCUCGGGUGCCAA | 1.49 |
| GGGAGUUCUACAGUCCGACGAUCGUGUCUGUUCUUGCCCUUAAUAUUAUAAGUGGCAUAAAUGUCACACCAUUGCAAAGAACGGGAGAAAUAGUCUAAAAAGGUGGGGCUUUGGCAUUCCUACCCUACAUCCUUGGAAUUCUCGGGUGCCAA | 0.401 |
| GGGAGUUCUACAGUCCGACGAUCAUGCUUAAACACAUUUAAUUGCUGUCAGAUUAAUUCCAUGAUCACUAAAGAGUUGCUGCUUUUUUCAUAUUUAUUUUUGUAAAUGAUUCUGUGCCCAGGAGCAGCUGGGGUGGAAUUCUCGGGUGCCAA | 0.423 |
| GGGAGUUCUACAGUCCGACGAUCGUCCAGUAUAAUUUUCCCUGAUAUGAAAAAAUGUGCAUUUUUUUCACUUAGCAACAAAGUACCUUCUAAUUUCCAAUAGUCCGUGAAAGUUGGGGCUGAAGUACCUAAGUUGGAAUUCUCGGGUGCCAA | 1.02 |
| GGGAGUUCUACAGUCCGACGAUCGAGGCCCCGGCACAGCCCUGCAGAGAUGCAAGUAAGAGAGUGCCCAGUGCCCUCGGCAGAUGGGUGGCAGAAAGCAGGAGGAGGAAGAGGGAGCUGACCGAUGCCGGGUGUGGAAUUCUCGGGUGCCAA | 0.568 |
| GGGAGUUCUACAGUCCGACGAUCGACAGAGCAGGAGGCGGUCUGUCACCUCGGCCACUGCUGACCUGGGCUGGCCUCCCCCAGCCCUCCCGUGGCGGAGCCGGCAGCGAUGCUACAGGCCUAAGUUAUUGUUUUGGAAUUCUCGGGUGCCAA | 0.339 |

Block 2
Target: Ras GTPase-activating protein-binding protein 1, full length (G3BP1, Homo sapiens, UniProt Q13283)
UniProt Q13283, sequence (whole entry, looked up): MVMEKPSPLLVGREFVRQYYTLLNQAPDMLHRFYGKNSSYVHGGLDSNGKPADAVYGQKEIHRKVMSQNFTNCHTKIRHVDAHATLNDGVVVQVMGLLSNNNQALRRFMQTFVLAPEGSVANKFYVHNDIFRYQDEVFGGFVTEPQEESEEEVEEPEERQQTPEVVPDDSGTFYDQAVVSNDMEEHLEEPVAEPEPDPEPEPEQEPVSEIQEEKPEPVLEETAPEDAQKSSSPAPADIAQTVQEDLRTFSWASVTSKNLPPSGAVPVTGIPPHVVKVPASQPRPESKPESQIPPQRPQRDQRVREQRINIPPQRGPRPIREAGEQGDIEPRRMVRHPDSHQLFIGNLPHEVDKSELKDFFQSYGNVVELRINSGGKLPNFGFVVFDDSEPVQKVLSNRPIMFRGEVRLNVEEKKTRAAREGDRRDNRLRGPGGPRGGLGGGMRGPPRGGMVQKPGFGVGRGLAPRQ
Method: RNA Bind-n-Seq
Form: RNA
Sample: in vitro
Tested at: 200 nM
Setting: whole 134-nt RNA, ends assumed
Added: 150 mM LiCl
Baseline: input library
Reading: higher = stronger binding
All molecules: 7-deaza-guanosine replaces G
| Oligonucleotide | log2 enrichment |
| --- | --- |
| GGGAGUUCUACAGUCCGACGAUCUAACUUUAGAGGAGGAUCUGAUGGAUAUGGCAGUGGACGUGGAUUUGGGGAUGGCUAUAAUGGGUAUCGAGGAGGACCUGGAGGUGGCAAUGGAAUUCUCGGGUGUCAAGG | -0.0985 |
| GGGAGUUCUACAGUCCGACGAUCUUCAAGGAAAAACAAGAGGAGCAGGCUCGCCUCCUUGAUGAACUGGCAGGCAAGCUACAAAGCCUAGACCUUUCAGCCGCUGCCGAAAUGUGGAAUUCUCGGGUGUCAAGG | -2.66 |
| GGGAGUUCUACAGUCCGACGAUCUCAAGUCCUGUGCUACACAUCGUAUGUACCGAAUCGGGUUUGGUUUGGUUUGGGGAAAGUAUUAUGUUACGCCGUUCGGAUCUGCACUUCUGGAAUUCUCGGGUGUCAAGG | -0.428 |
| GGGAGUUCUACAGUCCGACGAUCCUCAAGUCCUGUGCUACACAUCGUAUGUACCGAAUCGGAAAGGUUUUUGGAGGAAAGUAUUAUGUUACGCCGUUCGGAUCUGCACUUCCAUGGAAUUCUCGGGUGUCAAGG | 0.0189 |
| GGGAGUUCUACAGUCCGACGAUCUCAAGUCCUGUGCUACACAUCGUAUGUACCGAAUCGGAAAGGUGGUUUUUUUGGAAAGUAUUAUGUUACGCCGUUCGGAUCUGCACUUCCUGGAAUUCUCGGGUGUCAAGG | 0.159 |
| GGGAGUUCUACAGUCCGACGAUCCUCAAGUCCUGUGCUACACAUCGUAUGUACCGAAUCGGGGAGGGAGGGGAGGGAAAGUAUUAUGUUACGCCGUUCGGAUCUGCACUUCCAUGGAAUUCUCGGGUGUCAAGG | -0.322 |
| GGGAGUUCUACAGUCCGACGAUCCACAGACAACACGCACCCAAACAGACACAGAGGGAAGGGGUUGGGAUGGGGACAGGGUGCACAGCAGGGCGGGGUAGGACCCCAGCCCCUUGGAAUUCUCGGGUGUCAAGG | 0.148 |

Block 3
Target: RING finger protein unkempt homolog, zinc fingers 1-6, SBP tag (UNK, Homo sapiens, UniProt Q9C0B0, residues 30-357)
UniProt Q9C0B0, sequence (30-357, looked up): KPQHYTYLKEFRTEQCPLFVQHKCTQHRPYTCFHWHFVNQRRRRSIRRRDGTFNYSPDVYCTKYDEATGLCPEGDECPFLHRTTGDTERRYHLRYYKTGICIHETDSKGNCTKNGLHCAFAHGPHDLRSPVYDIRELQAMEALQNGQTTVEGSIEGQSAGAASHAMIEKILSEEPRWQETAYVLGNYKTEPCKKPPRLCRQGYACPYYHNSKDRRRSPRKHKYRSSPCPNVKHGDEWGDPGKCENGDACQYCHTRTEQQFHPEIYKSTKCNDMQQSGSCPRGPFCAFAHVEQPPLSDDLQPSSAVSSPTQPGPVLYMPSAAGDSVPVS
Method: RNA Bind-n-Seq
Form: RNA
Sample: in vitro
Tested at: 100 nM
Setting: RNA with constant flanks, vertebrate orthologous sites, ends assumed
Baseline: input RNA pool
Reading: higher = stronger binding
| Oligonucleotide | bound/input enrichment [ratio] |
| --- | --- |
| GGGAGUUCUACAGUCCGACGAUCAGCAACUCAAGGAUUGAGGACUGGUUUUACAAAUACACCAAGUAGAUAUGGAACUAAUAAUAGAAUUGGACAACCAAGACCAUGAUAGACUCUAACUUAUUUUUAUAAGGAAUAUUGACUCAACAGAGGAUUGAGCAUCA | 0.391 |
| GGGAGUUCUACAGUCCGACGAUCAAUAGUUUUAAGCUUGUUUGCACAGUUUUUCCUUUCCAUUGGAGAUGGAAUUCAUUGCCUUAGGUCUUUUUAAUAGUGUAUUGUUAUUGUUGGGCUGGCUCUAUGCUUGAAAACCAGUUUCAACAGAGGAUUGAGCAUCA | 1.89 |
| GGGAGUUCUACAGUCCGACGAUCCAGCUGAUUCACUCAUUGGAAGAGCUGCACAUAUAGCUGUUCUUGACUCAGAAAUAUUUUUAGAAAAGUUCUUUUUGGUUGCUGCCCUGAAAUAUUUCCAGUAGGAUAAAAACAUUGUUACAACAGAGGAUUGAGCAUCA | 0.739 |
| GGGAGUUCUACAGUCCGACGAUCAUAGGAACAGCAUAGGCUGUUUGAGCUUUGGGGAAUGAGCUUUGCUUUUUUGUAUUUAAAUAGGAUACUUUUAUAUGAUGGGUGCUUUUGAGUGUGAUUGAAGCAGGCUCCCAUUUCAGACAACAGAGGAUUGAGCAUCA | 1.11 |
| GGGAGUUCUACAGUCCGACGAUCGUUGUGUUUUGUACAGGGCACCAUUCUCUGUACACGUUUGUGGUUAUAAAAUUAGUAAAACAGCUUACAUUUGUAUUUAUUUUCUAGUCCAUACUUCUGUACCCCCAUUUUUUUCUCCCUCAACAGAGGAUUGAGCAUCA | 0.98 |
| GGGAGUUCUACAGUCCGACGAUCCGGCUGAUUCGCUCAUCGGGAGGGCCGCACACAUAGCUGUCCUCGAUUCGGAGAUAUUUUUAGAGAAGUUUUUCCUGGUUGCUGCCCUCAAAUAUUUCCAGUAGGACAGAAGCAUCAUUACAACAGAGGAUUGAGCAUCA | 0.412 |

Further values, each from its own experiment
| Substance | target | test | test system | setting | scale | measurement | result |
| --- | --- | --- | --- | --- | --- | --- | --- |
| PhoQ, residues 284 288 289 292 302 303 SLSVQF | PhoP, residues 12 14 15 18 19 NQCAL (Escherichia coli, UniProt P23836) | Sort-seq, measured: YFP reporter | E. coli | PhoQ-PhoP variant library, added: 10 µM Mg2+ | baseline: high Mg2+ state, higher = stronger signaling | fold induction | 14.8 |

Repeated from above (block 3):
| Oligonucleotide | bound/input enrichment [ratio] |
| --- | --- |
| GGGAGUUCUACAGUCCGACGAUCAAUAGUUUUAAGCUUGUUUGCACAGUUUUUCCUUUCCAUUGGAGAUGGAAUUCAUUGCCUUAGGUCUUUUUAAUAGUGUAUUGUUAUUGUUGGGCUGGCUCUAUGCUUGAAAACCAGUUUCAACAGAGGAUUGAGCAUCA | 1.89 |
| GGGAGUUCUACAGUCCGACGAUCCAGCUGAUUCACUCAUUGGAAGAGCUGCACAUAUAGCUGUUCUUGACUCAGAAAUAUUUUUAGAAAAGUUCUUUUUGGUUGCUGCCCUGAAAUAUUUCCAGUAGGAUAAAAACAUUGUUACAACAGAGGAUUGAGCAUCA | 0.739 |
| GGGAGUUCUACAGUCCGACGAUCAUAGGAACAGCAUAGGCUGUUUGAGCUUUGGGGAAUGAGCUUUGCUUUUUUGUAUUUAAAUAGGAUACUUUUAUAUGAUGGGUGCUUUUGAGUGUGAUUGAAGCAGGCUCCCAUUUCAGACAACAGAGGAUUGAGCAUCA | 1.11 |
